Measured values from different studies.
Compare with care: the assays were run in different laboratories. ± marks the error that the study gave. Converted amounts (≈) assume the structure as drawn.
Chain of UniProt Q8NB78 (whole entry, looked up): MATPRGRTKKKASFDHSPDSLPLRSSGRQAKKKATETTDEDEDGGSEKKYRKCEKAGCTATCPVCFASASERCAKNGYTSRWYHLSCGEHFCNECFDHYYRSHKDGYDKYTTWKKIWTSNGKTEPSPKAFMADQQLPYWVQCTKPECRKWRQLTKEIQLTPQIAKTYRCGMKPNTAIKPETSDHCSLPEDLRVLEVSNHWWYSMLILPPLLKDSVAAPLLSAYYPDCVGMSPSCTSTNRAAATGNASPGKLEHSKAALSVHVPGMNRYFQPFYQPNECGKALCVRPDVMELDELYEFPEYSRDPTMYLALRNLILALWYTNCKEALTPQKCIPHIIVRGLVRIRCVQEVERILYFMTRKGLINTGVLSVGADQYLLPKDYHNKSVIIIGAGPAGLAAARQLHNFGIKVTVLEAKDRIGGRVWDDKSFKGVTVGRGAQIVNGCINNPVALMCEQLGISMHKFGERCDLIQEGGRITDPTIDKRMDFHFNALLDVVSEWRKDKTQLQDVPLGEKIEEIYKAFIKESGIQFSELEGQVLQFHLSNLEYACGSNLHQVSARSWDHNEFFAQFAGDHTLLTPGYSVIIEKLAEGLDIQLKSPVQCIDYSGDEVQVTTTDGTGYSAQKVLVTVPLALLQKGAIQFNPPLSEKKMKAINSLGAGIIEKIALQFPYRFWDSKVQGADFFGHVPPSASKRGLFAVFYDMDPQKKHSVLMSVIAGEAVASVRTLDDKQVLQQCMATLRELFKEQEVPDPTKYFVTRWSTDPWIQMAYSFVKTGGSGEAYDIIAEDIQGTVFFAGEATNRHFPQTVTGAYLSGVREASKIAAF

For CCCC[C@H](NC(=O)CNC(=O)CNC(=O)CN1CCN(CC(=O)O)CCN(CC(=O)O)CCN(CC(=O)O)CC1)C(=O)N[C@H]1CC(=O)NCCCC[C@@H](C(N)=O)NC(=O)[C@H](Cc2c[nH]c3ccccc23)NC(=O)[C@H](CCCNC(=N)N)NC(=O)[C@@H](Cc2ccccc2)NC(=O)[C@H](Cc2c[nH]cn2)NC1=O [copper-64 labelled], the uptake ratio was 12.4 (female C57 mouse, B16/F1 melanoma; intravenous, 0.037 MBq, 2 h; reference: tumour over muscle).
CC(C)[C@H](NC(=O)CNC(=O)[C@H](CCC(N)=O)NC(=O)[C@H](C)N)C(=O)O has a Cmax of 6780 ng/mL (human, both sexes, plasma; intravenous infusion, 90 mg/kg/h, 2 h infusion, geometric mean).
The lag time of CC(C)(O)c1ncc([S@](N)(=O)=NC(=O)Nc2c3c(cc4c2CCC4)CCC3)s1 is reported as 0.25 h (healthy human volunteers, plasma; oral, 50 mg twice daily, fed, enteric-coated tablet).
CN[C@@H](CCOc1cccc2ccccc12)c1ccccc1 gave a median Tmax of 2.25 h (healthy male humans, plasma; oral, 60 mg of dapoxetine, with: udenafil 200 mg).
For CCCC[C@@H]1NC(=O)[C@@H](NC(=O)[C@H](CCC(=O)O)NC(=O)CNC(=O)CN2CCN(CC(=O)O)CCN(CC(=O)O)CCN(CC(=O)O)CC2)CCCCNC(=O)C[C@@H](C(N)=O)NC(=O)[C@H](C(C)C)NC(=O)[C@@H]2CCCN2C(=O)[C@H](CCCNC(=N)N)NC(=O)CNC(=O)[C@H](Cc2c[nH]c3ccccc23)NC(=O)[C@H](CCCNC(=N)N)NC(=O)[C@@H](Cc2ccccc2)NC(=O)[C@H](Cc2c[nH]cn2)NC(=O)[C@H](CCC(=O)O)NC1=O [gallium-67 labelled], the tissue uptake was 0.1 ± 0.01 %ID/g (C57 mice with B16/F1 melanoma, bone; intravenous, 0.037 MBq, 2 h).
NC12CNCCNCC(NCc3ccc(CNC(=O)CCCC(=O)NCc4ccc(-c5nncnn5)cc4)cc3)(CNCCNC1)CNCCNC2.[64Cu+2] — result for “mean absorbed dose”: 0.0354 rad/mCi (OLINDA dosimetry; thyroid; 24 h pretargeting interval, with: huA33-TCO pretargeting).
With COc1cc2nc(N3CCCCC3)nc(NC3CCN(C)CC3)c2cc1OC the kinetic solubility was 50 to 100 µg/mL (≈ 130 to 259 µM) (nephelometry; pH 2).
For C#CCOc1ccc(/C=C2\SC(=O)N(CC(=O)NCc3ccccc3)C2=O)cc1, “Kirkwood-Buff integral G2,3” read -544 cm³/mol (inverse Kirkwood-Buff integrals; binary solvent mixture; 298.15 K, mole fraction x1 0.10).
For Oc1ccc2ccccc2c1/N=N/c1ccccc1, the elimination half-life was 0.837 h (Sprague-Dawley rats both sexes, whole blood; oral, 50 mg/kg).
Under “metabolite to parent Cmax ratio”, CCn1c(=O)n(CCO)c(=O)c2c1nc(/C=C/c1ccc(OC)c(OC)c1)n2C is recorded as 0.0674 (healthy humans, plasma; oral, 40 mg).
For O=C([O-])CN1CCN(CC(=O)[O-])CCN(CC(=O)NCCc2ccc3c(c2)C2C=CCC2C(c2cc4c(cc2Br)OCO4)N3)CCN(CC(=O)[O-])CC1.[111In+3] (centres unmarked), the tissue uptake was 0.17 ± 0.02 %ID/g (mouse, Hec50 endometrial tumour, heart; 4 h post injection).
With CCCC[C@H](NC(=O)CN1CCC(NC(=O)CN2CCN(CC(=O)O)CCN(CC(=O)O)CCN(CC(=O)O)CC2)CC1)C(=O)N[C@H]1CC(=O)NCCCC[C@@H](C(N)=O)NC(=O)[C@H](Cc2c[nH]c3ccccc23)NC(=O)[C@H](CCCNC(=N)N)NC(=O)[C@@H](Cc2ccccc2)NC(=O)[C@H](Cc2c[nH]cn2)NC1=O [gallium-68 labelled] the uptake ratio was 2.8 ± 0.9 (male C57BL/6J mice, B16-F10 tumours, tumour, muscle; intravenous, 1 h, blocking study, with: 100 µg non-radioactive Ga-peptide; reference: tumour over muscle).
With CC(C)C[C@@H](NC(=O)[C@H](NC(=O)[C@H]1CCCN1)[C@H](C)O)C(=O)N[C@H](Cc1c[nH]cn1)C(=O)N[C@@H](C(=O)N[C@H](Cc1c[nH]cn1)C(=O)N[C@H](CC(N)=O)C(=O)N[C@H](CCCNC(=N)N)C(=O)N[C@H](CCCNC(=N)N)C(=O)N[C@H](CCCNC(=N)N)C(=O)N[C@H](CCCNC(=N)N)C(=O)N[C@H](CCCNC(=N)N)C(N)=O)[C@H](C)O the bioavailability was 2% (beagle dog, plasma; oral, 20 mg/kg, single dose).
CCCC[C@H](NC(C)=O)C(=O)N[C@H]1CC(=O)NCCCC[C@@H](C(=O)N[C@@H](C(=O)N2CCC[C@@H]2C(N)=O)C(C)C)NC(=O)[C@H](Cc2c[nH]c3ccccc23)NC(=O)[C@H](CCCN=C(N)N)NC(=O)[C@@H](Cc2ccc3ccccc3c2)NC(=O)[C@@H]2CCCN2C1=O has a Tmax of 1.1 ± 0.3 h (Beagle dog, both sexes, plasma; subcutaneous, once daily, 2.25 mg/kg, day 1).
C#CCN(C(=O)OCc1ccc(C(=O)N(C)C)cc1)[c-]1cccc1.[Fe+2].c1cc[cH-]c1 gave an E1/2 of -10 mV (cyclic and differential pulse voltammetry; acetonitrile; 23 °C; reference: ferrocene/ferrocenium).
CC[C@H](C)[C@H](NC(=O)[C@H](N)Cc1ccc(O)cc1)C(=O)N[C@H]1CSSC[C@@H](C(=O)N(C)[C@H](C(N)=O)[C@@H](C)CC)NC(=O)[C@H](CCCNC(=N)N)NC(=O)[C@H](Cc2c[nH]cn2)NC(=O)[C@H](C)NC(=O)CN(C)C(=O)[C@H](Cc2c[nH]c3ccccc23)NC(=O)[C@H](CC(=O)O)NC(=O)[C@H](CCC(N)=O)NC(=O)[C@H](Cc2cn(C)c3ccccc23)NC(=O)[C@H](C(C)C)NC1=O gave a recovery of 99.3 ± 2.3% (UPLC-ESI-MS; human plasma; 0.18 µg/mL, 48 h, 25 °C, bench-top after SPE).
CC(O)c1nc(-c2ccc3c(c2)CC[C@H]3NC(=O)c2cnn(C)c2)no1 (some centres unmarked): “radioactive dose excreted in urine” roughly 9.37% (human, pooled urine; oral, 20 mg; reference: dose).
NS(=O)(=O)Nc1ncnc(OCCOc2ncc(Br)cn2)c1-c1ccc(Br)cc1 gave a Km of 6.2 ± 0.5 µM (M6 formation; female Beagle dog, liver microsomes; 5 mg/kg daily for 4 weeks).
Under “pi-pi* absorption maximum, trans”, COc1ccc(/N=N/c2ccc(OC[C@@H](O)CNC(C)C)cc2)cc1 is recorded as 358 nm (UV/Vis spectroscopy; Epac buffer with 0.5 % DMSO; 50 µM).
CCC(CC)CNC(=N)NC(=N)NCCCCCCNC(=N)NC(=N)NCC(CC)CC has a urinary excretion of 0.017% (BALB/c mice, male, urine; intraperitoneal, 2 mg/kg daily for 5 days, 0 to 4 h after last dose; reference: final dose).
For CN(C)C(=O)c1ccnc(N2Cc3cn(Cc4ccc(F)cc4F)nc3C2)n1, “effect size d” read -0.15 (Morris water maze, item: swimming velocity; wild-type mice; oral, 5 mg/kg daily, from 1 week before test, unit not given; reference: vehicle).
COc1ccc(CCCN[C@H]2CCC[C@@H]2CN[C@@H]2CCC[C@H]2CNCCCCN[C@@H]2CCC[C@H]2CN)cc1 has a Ki of 9.5 µM (KDM1B (Homo sapiens, UniProt Q8NB78); enzyme activity, inhibitor).
O=C([O-])CN1CCN(CC(=O)[O-])CCN(CC(=O)NCC2CCC(C(=O)NC(Cc3ccc4ccccc4c3)C(=O)NCCCCC(NC(=O)NC(CCC(=O)O)C(=O)O)C(=O)O)CC2)CCN(CC(=O)[O-])CC1.[44Sc+3] (centres unmarked) has an absorbed dose of 0.075 mSv/MBq (PET/CT, OLINDA/EXM; human patients, salivary glands; mean of patients).
Under “metabolite peak area”, Cc1cc(C(=O)N[C@@H](CO)CC(C)C)ccc1CO is recorded as 0% (LC-MS; human liver microsomes; 10 µM of parent drug, 10 min, pH 7.4, with: NADPH; reference: parent drug at time zero).
For CC(C)(Sc1ccncc1-c1ccc(C#N)c2ccccc12)C(=O)OC1OC(C(=O)O)C(O)C(O)C1O (centres unmarked), “renal clearance ratio (0-72 h)” read 9.78% (adult men, urine; oral, 15 mg verinurad, severe renal impairment; reference: impaired over normal renal function).
For CCCC[C@H](NC(=O)CNC(=O)CNC(=O)CN1CCN(CC(=O)O)CCN(CC(=O)O)CCN(CC(=O)O)CC1)C(=O)N[C@H]1CC(=O)NCCCC[C@@H](C(N)=O)NC(=O)[C@H](Cc2c[nH]c3ccccc23)NC(=O)[C@H](CCCNC(=N)N)NC(=O)[C@@H](Cc2ccccc2)NC(=O)[C@H](Cc2c[nH]cn2)NC1=O [gallium-67 labelled], the urinary excretion was 84.9 ± 2.81% (C57 mice, female, B16/F1 melanoma, urine; intravenous, 0.037 MBq, 2 h).
CC(C)[C@H](NC(=O)CNC(=O)[C@H](CCC(N)=O)NC(=O)[C@H](C)N)C(=O)O gave an AUC(0-t) of 19700 ng·h/mL (healthy volunteers, LPS endotoxaemia, plasma; intravenous, 90 mg/kg/h, 2 h infusion, geometric mean, with: LPS 2 ng/kg).
CC(C)(Sc1cc[n+]([O-])cc1-c1ccc(C#N)c2ccccc12)C(=O)OC1OC(C(=O)O)C(O)C(O)C1O (centres unmarked) has a renal clearance of 117 mL/min (human, urine; oral, 15 mg, 72 h, moderate renal impairment).
Cn1c(=O)oc2ccc(-c3ccc(CC(C#N)NC(=O)C4CNCCCO4)c(F)c3)cc21 (centres unmarked) — result for “subjects with TEAE”: 0% (item: glucose urine present; human; 80 mg single dose, fasted).
Oc1c(Br)cc(Br)c2nc3cc(I)ccc3nc12 gave a hemolysis of no more than 1% (human red blood cells; 200 µM, 1 h, pH 7.2, 37 °C).
With CC(=O)N([O-])CCCCCNC(=O)CCC(=O)N([O-])CCCCCNC(=O)CCC(=O)N([O-])CCCCCN.[89Zr+4] the tracer uptake was 0.22 %ID/g (mouse, liver; 24 h).
COCCOCCOCCOCCOCCOCCOCCOCCC(=O)NCCCc1cc2cc3nc(cc4[nH]c(cc5nc(c(OC)c1[nH]2)C(=O)C5(C)C)cc4CCc1ccc(C(=O)O)cc1)CC3(C)C: “intersystem crossing yield” 0.5 (DMF; room temperature).
Under “steady-state trough concentration”, C=CC(=O)Nc1cc(Nc2nccc(-c3c[nH]c4ccccc34)n2)c(OC)cc1N(C)CCN(C)C is recorded as 20 ng/mL (UHPLC-MS/MS; human, plasma; oral, 80 mg daily).
The recovery of O=S(=O)(c1ccccc1)N1CCCCC1 is reported as 100% (phosphate-buffered saline; 24 h, pH 6.5).
For CC(C)c1cnc(-c2cc(Cl)ccc2F)cc1Nc1ccncc1C(=O)NC(CO)CO, “patients with treatment-related adverse event” read 0% (monotherapy, item: nausea; human patients; oral, dose not given, grade 3, phase I A).
With Cc1ccc(OCC(=O)N(Cc2cccs2)c2ccn[nH]2)cc1 the dose-normalised AUC(0-last) was 0.501 ng·h/mL/mg/kg (Sprague-Dawley rat, male, plasma; oral gavage, 100 mg/kg).
The log beta of NCC(=O)N1CCC[C@H]1C(=O)N1C[C@H](O)C[C@H]1C(=O)O is reported as 13.6 (potentiometric titration; 25 °C, MAH-1 complex, with: Fe(III)).
For CCCCC1NC(=O)c2ccccc21 (racemic), the elimination half-life was 1.29 ± 0.0483 h (Wistar rat, both sexes, plasma; oral, 10 mg/kg).
With COC(=O)/C=C/C(=O)c1ccc(OC)cc1 the recovery was 97.2 ± 8.44% (LC-MS/MS; rat plasma; 2.5 ng/mL, 15 days, -70 °C, long-term storage).
C[C@H](CN(C)Cc1ccccc1)NC(=O)c1ccc(-c2noc(C(F)(F)[18F])n2)cc1 has a muscle uptake of 0.6 SUV (dynamic PET/CT; Sprague-Dawley rat, female; intravenous, dose not given, peak and plateau).
O=C1CCC(=O)N([O-])CCCCCNC(=O)CCC(=O)N([O-])CCCCCNC(=O)CCC(=O)N([O-])CCCCCN1.[Fe+3] — result for “apparent log KFe”: 32.4 ± 0.1 (EDTA competition; pH 7.4, with: EDTA 1.2 equiv).
FC(F)(F)c1ccc2nc3c4cccnc4c4ncccc4c3nc2c1.[Cl-].[Cl-].[Ru+2].c1ccncc1.c1ccncc1.c1ccncc1.c1ccncc1 has a hemolysis of 1.19 ± 0.01% (red blood cells, rabbit; 20 µM, 2 h, 37 °C).
COc1ccc(/C=C/c2ccc(-c3ccc(C)cn3)nc2)cc1 — result for “fluorescence quantum yield”: 0.33 (MeOH; with: quinine bisulfate reference).
For [64Cu+2].c1cnc(CNCc2ccc(CN3CCCN4CCNCCCN(CC4)CC3)cc2)nc1, the tissue uptake was 6.12 ± 0.97 %ID/g (CXCR4 (human); NOD/SCID mice, U87 xenografts, U87 control tumour; 90 min post-injection).
The blood cholesterol of C=C(c1ccc(C(=O)O)c(F)c1)c1cc2c(cc1C)C(C)(C)C=CC2(C)C is reported as 97 ± 10.4 mg/dL (Sprague-Dawley rat, male; oral, 100 mg/kg, 6 h, sesame oil vehicle).
With [64Cu+2].c1ccc(CNCc2ccc(CN3CCCN4CCNCCCN(CC4)CC3)cc2)nc1 the tissue uptake was 2.13 ± 0.72 %ID/g (CXCR4 (human); NOD/SCID mice, U87 xenografts, U87 control tumour; 120 min post-injection).
CC(C)CCCC(C)CCCC(C)CCO[C@@H]1O[C@H](CO)[C@@H](O[C@H]2O[C@H](CO)[C@@H](O)[C@H](O)[C@H]2O)[C@H](O)[C@H]1O (some centres unmarked): “characteristic time t*” 43.8 s (dynamic surface tension; 0.0145 mmol/L).

Repeated from above:
Under “metabolite peak area”, Cc1cc(C(=O)N[C@@H](CO)CC(C)C)ccc1CO is recorded as 0% (LC-MS; human liver microsomes; 10 µM of parent drug, 10 min, pH 7.4, with: NADPH; reference: parent drug at time zero).
For CC(C)(Sc1ccncc1-c1ccc(C#N)c2ccccc12)C(=O)OC1OC(C(=O)O)C(O)C(O)C1O (centres unmarked), “renal clearance ratio (0-72 h)” read 9.78% (adult men, urine; oral, 15 mg verinurad, severe renal impairment; reference: impaired over normal renal function).
For CCCC[C@H](NC(=O)CNC(=O)CNC(=O)CN1CCN(CC(=O)O)CCN(CC(=O)O)CCN(CC(=O)O)CC1)C(=O)N[C@H]1CC(=O)NCCCC[C@@H](C(N)=O)NC(=O)[C@H](Cc2c[nH]c3ccccc23)NC(=O)[C@H](CCCNC(=N)N)NC(=O)[C@@H](Cc2ccccc2)NC(=O)[C@H](Cc2c[nH]cn2)NC1=O [gallium-67 labelled], the urinary excretion was 84.9 ± 2.81% (C57 mice, female, B16/F1 melanoma, urine; intravenous, 0.037 MBq, 2 h).
